# Assay results of several laboratories.
# Compare with care: the assays were run in different laboratories. “And” joins repeats or separate records; there may be more than shown. ± marks the error that the study gave.
# HTR3A: 5-hydroxytryptamine receptor 3A (HTR3A, Homo sapiens, UniProt P46098)
# UniProt P46098, sequence (whole entry, looked up): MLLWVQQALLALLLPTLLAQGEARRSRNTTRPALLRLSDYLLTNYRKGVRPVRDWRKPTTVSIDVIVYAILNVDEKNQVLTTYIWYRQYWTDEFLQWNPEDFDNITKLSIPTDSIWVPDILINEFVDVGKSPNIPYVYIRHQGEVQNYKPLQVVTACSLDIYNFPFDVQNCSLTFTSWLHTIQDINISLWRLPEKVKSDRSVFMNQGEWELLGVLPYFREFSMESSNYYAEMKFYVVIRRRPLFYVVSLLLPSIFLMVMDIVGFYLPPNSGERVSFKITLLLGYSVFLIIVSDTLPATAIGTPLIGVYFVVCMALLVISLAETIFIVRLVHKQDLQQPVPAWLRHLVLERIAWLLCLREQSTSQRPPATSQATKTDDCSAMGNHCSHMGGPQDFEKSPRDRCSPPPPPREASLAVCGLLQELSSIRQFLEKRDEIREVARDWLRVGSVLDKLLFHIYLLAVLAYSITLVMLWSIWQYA
# Trypanothione synthetase: Trypanothione synthetase (Leishmania infantum, UniProt A4I2Z3)
# CGAS catalytic domain; with DNA: Cyclic GMP-AMP synthase, catalytic domain; with DNA (CGAS, Homo sapiens, UniProt Q8N884)
# UniProt Q8N884, sequence (whole entry, looked up): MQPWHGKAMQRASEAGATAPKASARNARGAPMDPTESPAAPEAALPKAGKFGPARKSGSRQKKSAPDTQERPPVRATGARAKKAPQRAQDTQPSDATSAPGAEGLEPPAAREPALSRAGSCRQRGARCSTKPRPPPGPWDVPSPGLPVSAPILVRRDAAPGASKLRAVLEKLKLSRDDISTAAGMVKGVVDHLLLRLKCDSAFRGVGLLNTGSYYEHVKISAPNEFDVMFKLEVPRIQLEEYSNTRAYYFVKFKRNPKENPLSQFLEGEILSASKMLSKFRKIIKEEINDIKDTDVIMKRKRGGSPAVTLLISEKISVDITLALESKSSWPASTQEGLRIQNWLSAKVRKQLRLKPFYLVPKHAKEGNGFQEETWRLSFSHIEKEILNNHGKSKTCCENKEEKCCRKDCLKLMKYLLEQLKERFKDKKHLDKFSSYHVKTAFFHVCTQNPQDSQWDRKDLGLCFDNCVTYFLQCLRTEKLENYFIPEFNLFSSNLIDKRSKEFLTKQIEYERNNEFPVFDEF
# UniProt P05067, sequence (whole entry, looked up): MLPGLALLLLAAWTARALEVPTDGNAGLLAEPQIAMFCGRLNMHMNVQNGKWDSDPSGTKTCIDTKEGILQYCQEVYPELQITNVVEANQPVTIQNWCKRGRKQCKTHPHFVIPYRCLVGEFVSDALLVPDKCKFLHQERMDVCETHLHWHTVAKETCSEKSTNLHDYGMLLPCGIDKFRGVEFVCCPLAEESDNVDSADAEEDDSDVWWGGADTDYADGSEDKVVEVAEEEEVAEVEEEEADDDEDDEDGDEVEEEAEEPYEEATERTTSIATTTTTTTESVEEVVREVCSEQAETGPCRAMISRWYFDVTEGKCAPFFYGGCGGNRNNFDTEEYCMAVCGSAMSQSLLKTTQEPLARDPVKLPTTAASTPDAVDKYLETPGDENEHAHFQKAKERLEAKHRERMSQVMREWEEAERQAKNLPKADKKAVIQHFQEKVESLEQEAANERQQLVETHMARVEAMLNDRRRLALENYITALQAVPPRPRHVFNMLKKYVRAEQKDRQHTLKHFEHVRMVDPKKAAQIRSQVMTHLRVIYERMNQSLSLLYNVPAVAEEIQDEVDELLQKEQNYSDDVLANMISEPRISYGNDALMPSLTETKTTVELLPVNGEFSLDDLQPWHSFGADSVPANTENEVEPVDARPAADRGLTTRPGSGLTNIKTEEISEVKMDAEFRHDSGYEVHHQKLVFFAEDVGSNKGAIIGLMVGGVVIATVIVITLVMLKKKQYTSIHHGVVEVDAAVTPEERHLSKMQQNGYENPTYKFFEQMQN
# UniProt Q16853, sequence (whole entry, looked up): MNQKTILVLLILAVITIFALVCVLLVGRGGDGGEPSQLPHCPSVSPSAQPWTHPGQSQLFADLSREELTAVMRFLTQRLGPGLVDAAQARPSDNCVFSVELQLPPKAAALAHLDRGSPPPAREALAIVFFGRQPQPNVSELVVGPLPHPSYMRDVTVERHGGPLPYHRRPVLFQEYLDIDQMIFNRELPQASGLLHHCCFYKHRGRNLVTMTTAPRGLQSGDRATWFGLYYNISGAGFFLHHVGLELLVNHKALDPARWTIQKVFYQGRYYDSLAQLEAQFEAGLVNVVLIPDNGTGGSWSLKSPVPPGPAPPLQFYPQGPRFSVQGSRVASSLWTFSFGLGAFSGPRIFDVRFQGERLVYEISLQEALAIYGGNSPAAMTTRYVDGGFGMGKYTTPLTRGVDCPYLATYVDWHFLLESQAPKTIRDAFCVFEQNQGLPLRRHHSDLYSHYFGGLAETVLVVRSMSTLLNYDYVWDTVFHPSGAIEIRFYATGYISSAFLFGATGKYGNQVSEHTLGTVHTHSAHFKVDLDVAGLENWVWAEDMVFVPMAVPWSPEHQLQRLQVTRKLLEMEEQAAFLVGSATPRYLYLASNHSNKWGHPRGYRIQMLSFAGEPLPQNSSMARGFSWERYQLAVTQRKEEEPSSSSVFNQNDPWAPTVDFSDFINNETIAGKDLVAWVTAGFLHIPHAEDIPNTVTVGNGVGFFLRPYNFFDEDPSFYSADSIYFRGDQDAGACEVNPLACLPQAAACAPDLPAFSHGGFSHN
# UniProt P27815, sequence (whole entry, looked up): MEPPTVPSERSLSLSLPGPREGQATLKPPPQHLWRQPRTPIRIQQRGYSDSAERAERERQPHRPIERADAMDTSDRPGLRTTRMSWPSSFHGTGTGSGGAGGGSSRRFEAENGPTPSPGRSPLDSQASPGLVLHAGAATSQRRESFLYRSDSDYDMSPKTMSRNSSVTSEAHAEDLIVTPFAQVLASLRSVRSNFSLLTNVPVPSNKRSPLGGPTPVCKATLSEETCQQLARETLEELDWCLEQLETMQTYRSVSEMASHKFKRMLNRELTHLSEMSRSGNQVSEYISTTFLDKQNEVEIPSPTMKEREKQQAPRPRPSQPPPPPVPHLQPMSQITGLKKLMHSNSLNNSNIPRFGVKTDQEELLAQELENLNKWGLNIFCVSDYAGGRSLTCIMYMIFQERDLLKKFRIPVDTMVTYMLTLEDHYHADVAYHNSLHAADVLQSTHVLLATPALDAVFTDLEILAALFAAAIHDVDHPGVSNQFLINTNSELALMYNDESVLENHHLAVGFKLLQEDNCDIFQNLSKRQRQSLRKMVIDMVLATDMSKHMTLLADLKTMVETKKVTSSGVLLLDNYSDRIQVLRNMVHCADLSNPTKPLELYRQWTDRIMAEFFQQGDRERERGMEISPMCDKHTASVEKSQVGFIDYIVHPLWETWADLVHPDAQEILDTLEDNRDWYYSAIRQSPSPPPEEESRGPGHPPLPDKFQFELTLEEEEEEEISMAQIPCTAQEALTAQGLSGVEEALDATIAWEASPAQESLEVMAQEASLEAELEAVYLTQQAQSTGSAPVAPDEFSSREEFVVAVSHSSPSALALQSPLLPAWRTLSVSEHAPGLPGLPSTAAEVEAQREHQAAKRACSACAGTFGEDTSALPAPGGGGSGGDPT
# UniProt P54750, sequence (whole entry, looked up): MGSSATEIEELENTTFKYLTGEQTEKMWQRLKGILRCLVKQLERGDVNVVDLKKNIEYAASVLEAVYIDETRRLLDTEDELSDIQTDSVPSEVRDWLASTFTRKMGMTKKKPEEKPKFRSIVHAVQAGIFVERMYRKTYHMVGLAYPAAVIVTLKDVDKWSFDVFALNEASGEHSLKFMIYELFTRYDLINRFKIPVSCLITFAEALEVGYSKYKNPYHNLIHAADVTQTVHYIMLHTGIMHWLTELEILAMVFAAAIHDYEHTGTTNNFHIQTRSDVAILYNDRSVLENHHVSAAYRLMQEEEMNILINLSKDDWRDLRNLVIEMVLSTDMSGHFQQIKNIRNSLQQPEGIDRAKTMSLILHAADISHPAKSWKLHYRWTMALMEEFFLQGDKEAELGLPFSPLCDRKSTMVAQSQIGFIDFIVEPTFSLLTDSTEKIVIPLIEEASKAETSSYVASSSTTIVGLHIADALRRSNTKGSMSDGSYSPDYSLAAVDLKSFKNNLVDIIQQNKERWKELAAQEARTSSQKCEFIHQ
# UniProt P19784, sequence (whole entry, looked up): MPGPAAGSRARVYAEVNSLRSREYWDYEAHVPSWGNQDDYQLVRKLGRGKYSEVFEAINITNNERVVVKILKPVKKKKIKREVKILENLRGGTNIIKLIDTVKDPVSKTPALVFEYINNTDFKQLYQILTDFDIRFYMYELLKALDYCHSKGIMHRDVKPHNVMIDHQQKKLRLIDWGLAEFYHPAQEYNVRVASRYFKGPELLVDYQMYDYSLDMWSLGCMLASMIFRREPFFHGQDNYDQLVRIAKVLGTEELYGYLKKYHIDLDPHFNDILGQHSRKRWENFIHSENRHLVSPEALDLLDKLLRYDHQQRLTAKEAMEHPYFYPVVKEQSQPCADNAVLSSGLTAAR
# UniProt Q9P289, sequence (whole entry, looked up): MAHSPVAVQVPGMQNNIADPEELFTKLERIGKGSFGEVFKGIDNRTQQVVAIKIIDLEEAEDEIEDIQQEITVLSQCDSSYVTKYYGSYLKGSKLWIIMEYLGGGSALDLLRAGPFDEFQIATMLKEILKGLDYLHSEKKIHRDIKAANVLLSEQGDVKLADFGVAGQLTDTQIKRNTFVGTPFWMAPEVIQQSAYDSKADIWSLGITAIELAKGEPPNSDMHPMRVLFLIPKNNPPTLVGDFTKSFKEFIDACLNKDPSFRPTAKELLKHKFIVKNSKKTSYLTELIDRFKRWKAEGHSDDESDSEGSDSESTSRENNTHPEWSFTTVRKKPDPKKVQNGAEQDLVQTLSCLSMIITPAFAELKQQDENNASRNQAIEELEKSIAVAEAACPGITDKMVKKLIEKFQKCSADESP
Compound,target,test,test system,conditions,inhibition
CC[C@@H]1[C@H](F)C(=O)N[C@@H]1COc1nccc2cc(C(N)=O)c(OC)cc12,"STK11 (Homo sapiens, UniProt Q15831)","ATP-site probe binding, ActivX profiling",THP-1 cell lysate,"0.2 mM, Lys2 site",34.8%
O=C(Nc1cccc2c(=O)cc(-c3nnn[nH]3)oc12)c1ccc(OCCCCc2ccccc2)cc1,"Volume-regulated anion channel subunit LRRC8C, part LRRC8A IL1 chimera (LRRC8C, Homo sapiens, UniProt Q8TDW0, E6A)","ion current, inhibitor, whole-cell patch clamp",HCT LRRC8-/- cells,"1 µM, +100 mV",80.8% and 91.1% and 86.4% and 90.8%
COc1ccc(F)cc1C(=O)NCc1ccc(-c2nn([C@@H](C)C(F)(F)F)c(N)c2C(N)=O)cc1,"PIK3CB (Homo sapiens, UniProt P42338)","target engagement, competitive chemoproteomics",human PBMCs,1 µM,31.5%
COc1cc(C(=O)NS(=O)(=O)c2ccccc2C)ccc1Cc1cn(C)c2ccc(NC(=O)OC3CCCC3)cc12,"Volume-regulated anion channel subunit LRRC8C, part LRRC8A IL1 chimera (LRRC8C, Homo sapiens, UniProt Q8TDW0, L105R)","ion current, inhibitor, whole-cell patch clamp",HCT LRRC8-/- cells,"10 µM, +100 mV",61% and 86.3% and 67.2% and 83.4% and 75.3% and 88.6%
OO,"Histone acetyltransferase GCN5, with Ada2 and Ada3 (Saccharomyces cerevisiae S288c, UniProt Q03330)",enzyme activity,,"1 mM, added: Gcn5-Ada2-Ada3 complex, without DTT",8 ± 8%
COc1ccc2c(c1)CN(CCCN1CCN(c3ccccc3OC)CC1)C2=O,HTR3A,radioligand binding,,"concentration not given, added: [3H]GR65630",7.9%
C=CC1=C(C)C2=Cc3c(C=C)c(C)c4[n]3[Sn]([Cl])([Cl])[n]3c(c(C)c(CCC(=O)O)c3=CC3=NC(=C4)C(C)=C3CCC(=O)O)=CC1=N2,Trypanothione synthetase,enzyme activity,,25 µM,5.1 ± 7.4%
CCc1nn(C)c2nc(-c3ccc(C(=O)O)cc3)nc(NCc3ccc(F)cc3)c12,"PDE4A (Homo sapiens, UniProt P27815)",enzyme activity,,"10 µM, added: [3H]cAMP",27.7%
C#Cc1cc(-c2cc(Nc3nc(N[C@@H](C)c4ccc(F)cn4)ncc3Cl)n[nH]2)ccc1C=O,"NTRK1 (Homo sapiens, UniProt P04629)","enzyme activity, inhibitor",,0.2 µM,100%
COc1cc2c(cc1OC)C(=O)C(CC1CCN(Cc3ccccc3)CC1)C2 (stereo not drawn),HTR3A,radioligand binding,,"concentration not given, added: [3H]GR65630",10.7%
COc1cc2nc(N3CCN(C(=O)c4ccco4)CC3)nc(N)c2cc1OC,rat α1-Adrenergic receptor,binding,,1 × 10 µM,99.7%
O=C(c1ccc(OCCN2CCCCC2)cc1)c1c(-c2ccc(O)cc2)sc2cc(O)ccc12,Trypanothione synthetase,"enzyme activity, inhibitor, phosphate release",,25 µM,41.3 ± 4.9%
Cc1nn(-c2nc3ccccc3[nH]2)c(O)c1C(c1ccccn1)c1c(C)nn(-c2nc3ccccc3[nH]2)c1O,CGAS catalytic domain; with DNA,"liquid-liquid phase separation, inhibitor",,12.5 µM,57.4%
CNc1ccc(-c2nc3ccc(O)cc3s2)cc1,"Amyloid-beta precursor protein, amyloid-beta (APP, Homo sapiens, UniProt P05067)","binding, competition binding",amyloid-beta aggregates,"1000 nM, added: tritiated amyloid ligand",92.9% and 84%
COc1cccc(OC[C@@H]2CN(CCN3CCc4ccccc43)CCO2)c1,HTR3A,radioligand binding,,"concentration not given, added: [3H]GR65630",12.2%
CN1CC(Oc2cnc(C#N)cc2-c2ccn3nc(NC(=O)C4CC4)cc3c2)C1,"CSNK2A2 (Homo sapiens, UniProt P19784)","inhibitor, KinaseProfiler panel",,1 µM,-1%
Cc1nn(-c2nc3ccccc3[nH]2)c(O)c1C(c1ccccc1C(=O)O)c1c(C)nn(-c2nc3ccccc3[nH]2)c1O,"CGAS (Homo sapiens, UniProt Q8N884)","enzyme activity, inhibitor, pyrophosphatase-coupled",,"100 µM, 1.5 h, added: HT-DNA",81.2%
CN1CCN(c2cc(-c3ccncc3)c(-c3ccc4ccccc4c3)nn2)CC1,"GLP1R (Homo sapiens, UniProt P43220)","antagonist, FLIPR",,10 µM,31%
O=C(NCCCNS(=O)(=O)c1ccc(OC(F)(F)F)cc1)C1=Cc2ccccc2S1(=O)=O,"PTPRC (Homo sapiens, UniProt P08575)",enzyme activity,,"25 to 30 µM, phosphatase selectivity panel",no inhibition
C[C@@H]1CCO[C@H]2Cn3cc(C(=O)NCc4ccc(F)cc4F)c(=O)c(O)c3C(=O)N12,"SLC22A3 (Homo sapiens, UniProt O75751)",transport,"MDCK-II, transfected","100 µM, added: MPP+ 2 µM",7.27%
CN(C(=O)n1cnc(-c2ccc[n+]([O-])c2)c1)C1CCCCC1,"AVPR1A (Homo sapiens, UniProt P37288)",,,10 µM,-8%
c1cncc(OC[C@@H]2CN(CCN3CCc4ccccc43)CCO2)c1,HTR3A,radioligand binding,,"concentration not given, added: [3H]GR65630",3.2%
O=C(NO)c1ccc(CN2CCCCc3ccccc32)c(F)c1,HTR3A,"radioligand binding, radioligand displacement",,10 µM,-6.16%
c1ccc(OC[C@@H]2CN(CCN3CCc4ccccc43)CCO2)cc1,HTR3A,radioligand binding,,"concentration not given, added: [3H]GR65630",8.4%
Cc1cc(Nc2cc3ncccc3c(N[C@@H]3C[C@H]4CC[C@@H](C3)N4CCC#N)n2)n[nH]1,MT3 melatonin receptor hamster,"radioligand binding, Eurofins binding panel",,10 µM,> 50%
CNc1cc(Oc2cc(C(=O)Nc3cc(N4CCN(C)CC4)cc(C(F)(F)F)c3)ccc2C)ncn1,"STK26 (Homo sapiens, UniProt Q9P289)",kinase activity,,1 µM,-27.6%
Cc1nn(-c2nc3ccccc3s2)c(O)c1C(c1ccccc1C(=O)O)c1c(C)nn(-c2nc3ccccc3s2)c1O,CGAS catalytic domain; with DNA,"cGAS phase separation, inhibitor",,20 µM,120%
COc1ccc2c(c1)C(=O)N(CCCN1CCN(c3ccccc3OC)CC1)C2,HTR3A,radioligand binding,,"concentration not given, added: [3H]GR65630",-3.4%
Cc1cc2c(cc1N1C(=O)c3cccc4c(CCCO)ccc(c34)C1=O)n(C)c(=O)n2C (racemic),"ATAD2 (Homo sapiens, UniProt Q6PL18)","binding, BROMOscan binding",,1000 nM,87%
CCN(CC)c1ccc(C2=NNC(=O)CC2C)cc1[N+](=O)[O-] (stereo not drawn),"Dual specificity calcium/calmodulin-dependent 3',5'-cyclic nucleotide phosphodiesterase 1A, PDE1A1 isoform (PDE1A, Homo sapiens, UniProt P54750)",enzyme activity,,100 nM,3% and 7%
NC/C(=C\F)COc1cccc(Cn2c(=S)[nH]c(=O)c3[nH]cnc32)c1,"AOC3 (Homo sapiens, UniProt Q16853)","H2O2 production, Amplex Red",,"0.1235 µM, recombinant human enzyme",96.8%
Cc1ccc(OC[C@@H]2CN(CCN3CCc4ccccc43)CCO2)cn1,HTR3A,radioligand binding,,"concentration not given, added: [3H]GR65630",-0.4%
CCc1oc2ccccc2c1C(=O)c1cc(Br)c(O)c(Br)c1,"SLC22A12 (Homo sapiens, UniProt Q96S37, F365A)",uric acid uptake,HEK293T transfected with SLC22A12 F365A,"0.5 µM, 10 min, 37 °C, mean, added: [14C]urate 200 µM",53.2%

# Repeated from above:
Compound,target,test,test system,conditions,inhibition
Cc1nn(-c2nc3ccccc3[nH]2)c(O)c1C(c1ccccc1C(=O)O)c1c(C)nn(-c2nc3ccccc3[nH]2)c1O,"CGAS (Homo sapiens, UniProt Q8N884)","enzyme activity, inhibitor, pyrophosphatase-coupled",,"100 µM, 1.5 h, added: HT-DNA",81.2%
Cc1ccc(OC[C@@H]2CN(CCN3CCc4ccccc43)CCO2)cn1,HTR3A,radioligand binding,,"concentration not given, added: [3H]GR65630",-0.4%
